Assay results of several laboratories.
Protocols differ between the studies behind these lines. Ends that are not written are not given here.
Organism: Pseudomonas aeruginosa

Molecule	assay	system	conditions	how to read	quantity	result
polymyxin B	biofilm formation, inhibitor	PAO1	24 h, 37 °C	–	MBIC	8 µg/mL
GSSFLSPEHQRVQQRKESKKPPAKLQPR (ghrelin; ends and bridges not checked; sequence looked up)	bacterial killing	peptide, ATCC 15692, sodium phosphate buffer	2 h, pH 6.8, 37 °C	relative to: untreated	bactericidal concentration	≥ 12.5 µg/mL
Cc1ccc(S(=O)(=O)Oc2cc(C(C)C)cccc2=O)cc1	microbial growth, broth dilution	ATCC27853	–	–	MIC80	> 100 µM
CO/N=C(\C(=O)N[C@@H]1C(=O)N2C(C(=O)O)=C(CSc3nc(=O)c(=O)[nH]n3C)CS[C@H]12)c1csc(N)n1	checkerboard broth microdilution	clinical isolate 8-97	together with: magainin II	–	FIC index	0.312
O=C(Nc1ccccc1)c1ccccc1O	microbial growth, broth dilution	ATCC27853	–	–	MIC	> 64 µg/mL
Cc1cc(O)n(C(N)=S)n1	broth microdilution, agar subculture	ATCC 25619	24 h	–	MBC	> 1000 µg/mL
CC[C@H]1OC(=O)[C@H](C)[C@@H](O[C@H]2C[C@@](C)(OC)[C@@H](O)[C@H](C)O2)[C@H](C)[C@@H](O[C@@H]2O[C@H](C)C[C@H](N(C)C)[C@H]2O)[C@](C)(OC)C[C@@H](C)C(=O)[C@H](C)[C@@H](O)[C@]1(C)O	checkerboard broth microdilution	clinical isolate 8-97	together with: magainin II	–	FIC index	1.5
NS(=O)(=O)c1ccc(NC2=NC(=O)/C(=C\c3ccc(O)cc3)S2)cc1	microbial growth	ATCC10145	50 µg/mL, 24 h	–	inhibition	18.6%
O=C1Nc2ccccc2C1=O	–	MPAO1	concentration not given, 20 min pre-exposure, static conditions	–	CNP inhibition of biofilm formation	inhibited
CCN1CCN(C(=O)N[C@@H](C(=O)N[C@@H]2C(=O)N3[C@@H]2SC(C)(C)[C@@H]3C(=O)O)c2ccccc2)C(=O)C1=O	checkerboard broth microdilution	clinical isolate 17-99	together with: ranalexin	–	FIC index	1
CCOC(=O)N1CCN(Cn2nc(C34CC5CC(CC(C5)C3)C4)n(-c3ccccc3)c2=S)CC1	–	IFO 3448	200 µg/disc, 24 h, 37 °C	–	inhibition zone diameter	< 10 mm
CC(C)(O/N=C(\C(=O)N[C@@H]1C(=O)N2C(C(=O)[O-])=C(C[n+]3ccccc3)CS[C@H]12)c1csc(N)n1)C(=O)O	checkerboard broth microdilution	clinical isolate 8-97	together with: magainin II	–	FIC index	0.375
CC[C@H]1OC(=O)[C@H](C)[C@@H](O[C@H]2C[C@@](C)(OC)[C@@H](O)[C@H](C)O2)[C@H](C)[C@@H](O[C@@H]2O[C@H](C)C[C@H](N(C)C)[C@H]2O)[C@](C)(O)C[C@@H](C)C(=O)[C@H](C)[C@@H](O)[C@]1(C)O	–	hospitalized pneumonia patients, clinical isolates	Fine score 70 or more	–	susceptible isolates	0%
